Assay results gathered from unrelated publications.
Parts stem from different laboratories: compare values within a part only.
UniProt P06241, sequence (whole entry, looked up): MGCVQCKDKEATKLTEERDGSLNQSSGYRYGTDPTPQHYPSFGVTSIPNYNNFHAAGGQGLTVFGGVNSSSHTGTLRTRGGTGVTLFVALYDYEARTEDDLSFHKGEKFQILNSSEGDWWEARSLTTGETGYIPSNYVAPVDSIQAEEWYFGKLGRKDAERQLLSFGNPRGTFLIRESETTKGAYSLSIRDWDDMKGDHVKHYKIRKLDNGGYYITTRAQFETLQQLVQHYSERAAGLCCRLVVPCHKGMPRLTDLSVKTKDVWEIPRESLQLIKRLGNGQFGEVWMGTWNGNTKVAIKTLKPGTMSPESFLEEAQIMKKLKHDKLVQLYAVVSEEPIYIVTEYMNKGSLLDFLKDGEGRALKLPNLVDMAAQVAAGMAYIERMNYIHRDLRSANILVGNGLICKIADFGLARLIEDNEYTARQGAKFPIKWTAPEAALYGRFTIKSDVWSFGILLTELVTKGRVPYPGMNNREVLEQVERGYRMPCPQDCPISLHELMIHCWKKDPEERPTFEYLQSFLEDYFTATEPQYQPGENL
UniProt O15197, sequence (whole entry, looked up): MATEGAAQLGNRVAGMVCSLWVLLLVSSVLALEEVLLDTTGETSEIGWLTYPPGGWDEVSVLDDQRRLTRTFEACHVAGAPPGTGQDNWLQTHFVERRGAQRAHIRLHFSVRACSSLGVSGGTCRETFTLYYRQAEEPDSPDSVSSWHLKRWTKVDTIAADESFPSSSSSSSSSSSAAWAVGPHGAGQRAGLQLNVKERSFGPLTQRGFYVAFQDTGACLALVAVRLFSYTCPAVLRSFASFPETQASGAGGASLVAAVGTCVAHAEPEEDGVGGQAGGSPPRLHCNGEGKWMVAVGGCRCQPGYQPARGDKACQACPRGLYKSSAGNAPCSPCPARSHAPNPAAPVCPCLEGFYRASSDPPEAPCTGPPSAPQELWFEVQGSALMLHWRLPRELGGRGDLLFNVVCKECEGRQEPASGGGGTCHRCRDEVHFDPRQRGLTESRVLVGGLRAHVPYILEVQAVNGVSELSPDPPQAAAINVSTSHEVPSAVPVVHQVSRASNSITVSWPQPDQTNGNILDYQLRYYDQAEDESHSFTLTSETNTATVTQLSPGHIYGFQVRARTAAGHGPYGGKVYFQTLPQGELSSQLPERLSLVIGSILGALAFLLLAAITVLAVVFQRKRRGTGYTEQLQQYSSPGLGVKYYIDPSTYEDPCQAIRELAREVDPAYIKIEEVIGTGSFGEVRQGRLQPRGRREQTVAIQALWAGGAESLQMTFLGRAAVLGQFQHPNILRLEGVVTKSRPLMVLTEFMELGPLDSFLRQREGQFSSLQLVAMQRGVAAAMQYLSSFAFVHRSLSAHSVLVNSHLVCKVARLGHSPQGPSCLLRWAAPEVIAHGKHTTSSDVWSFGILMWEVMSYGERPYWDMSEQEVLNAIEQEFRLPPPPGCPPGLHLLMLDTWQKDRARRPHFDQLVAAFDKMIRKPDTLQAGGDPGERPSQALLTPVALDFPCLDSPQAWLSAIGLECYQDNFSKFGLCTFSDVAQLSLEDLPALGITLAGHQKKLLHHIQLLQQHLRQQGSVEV
UniProt O14976, sequence (whole entry, looked up): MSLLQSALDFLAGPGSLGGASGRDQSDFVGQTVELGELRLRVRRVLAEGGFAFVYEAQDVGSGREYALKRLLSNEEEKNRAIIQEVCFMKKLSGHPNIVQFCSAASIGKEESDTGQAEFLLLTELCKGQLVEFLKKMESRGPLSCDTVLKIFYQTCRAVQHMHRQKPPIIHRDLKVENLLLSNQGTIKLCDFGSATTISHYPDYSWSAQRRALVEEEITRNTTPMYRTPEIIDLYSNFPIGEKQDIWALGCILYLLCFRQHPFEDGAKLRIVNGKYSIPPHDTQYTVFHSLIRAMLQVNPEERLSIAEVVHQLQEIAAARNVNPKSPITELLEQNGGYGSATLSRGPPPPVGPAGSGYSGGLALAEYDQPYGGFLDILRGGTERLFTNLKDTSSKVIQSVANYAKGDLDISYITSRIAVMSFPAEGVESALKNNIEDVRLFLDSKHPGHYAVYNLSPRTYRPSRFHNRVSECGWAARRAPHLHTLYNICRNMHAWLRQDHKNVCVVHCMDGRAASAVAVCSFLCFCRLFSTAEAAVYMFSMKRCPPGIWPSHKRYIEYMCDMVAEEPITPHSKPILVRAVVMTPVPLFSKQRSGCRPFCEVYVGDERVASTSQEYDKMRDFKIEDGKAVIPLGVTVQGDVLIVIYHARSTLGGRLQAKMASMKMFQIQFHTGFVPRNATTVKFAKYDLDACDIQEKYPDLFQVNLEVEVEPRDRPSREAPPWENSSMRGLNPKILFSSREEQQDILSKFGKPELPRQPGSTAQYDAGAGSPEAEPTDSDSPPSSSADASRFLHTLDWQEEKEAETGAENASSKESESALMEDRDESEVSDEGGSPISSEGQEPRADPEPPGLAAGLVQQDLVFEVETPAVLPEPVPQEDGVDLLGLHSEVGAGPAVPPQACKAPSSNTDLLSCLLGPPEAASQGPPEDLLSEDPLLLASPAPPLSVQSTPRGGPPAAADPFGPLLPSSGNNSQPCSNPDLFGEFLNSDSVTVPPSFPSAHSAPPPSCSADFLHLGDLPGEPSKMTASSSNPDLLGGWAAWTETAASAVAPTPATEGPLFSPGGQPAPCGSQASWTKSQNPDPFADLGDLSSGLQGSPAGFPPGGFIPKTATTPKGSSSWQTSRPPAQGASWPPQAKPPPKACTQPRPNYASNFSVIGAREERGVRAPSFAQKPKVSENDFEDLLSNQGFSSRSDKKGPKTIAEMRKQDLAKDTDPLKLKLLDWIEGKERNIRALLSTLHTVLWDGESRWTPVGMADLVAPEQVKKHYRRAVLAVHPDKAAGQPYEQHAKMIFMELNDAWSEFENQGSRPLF
UniProt Q14012, sequence (whole entry, looked up): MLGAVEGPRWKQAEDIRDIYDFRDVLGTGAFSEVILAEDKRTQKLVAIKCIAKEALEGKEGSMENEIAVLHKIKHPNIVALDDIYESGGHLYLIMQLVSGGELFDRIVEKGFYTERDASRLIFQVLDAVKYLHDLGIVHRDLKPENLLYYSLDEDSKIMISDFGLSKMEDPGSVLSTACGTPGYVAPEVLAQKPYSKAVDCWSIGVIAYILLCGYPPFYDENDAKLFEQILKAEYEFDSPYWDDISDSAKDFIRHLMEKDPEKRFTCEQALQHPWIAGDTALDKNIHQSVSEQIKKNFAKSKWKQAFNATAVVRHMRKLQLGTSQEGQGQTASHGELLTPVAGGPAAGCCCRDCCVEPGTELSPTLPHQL

Study 1
Target: PABPC1L2, full length, GST fusion (mouse, UniProt A0ABA7IW68)
Method: RNAcompete
Form: RNA
Sample: in vitro
Tested at: 20 nM
Notes: 7-mer, probes averaged, single round
Reference: mean of 7-mers
Reading: higher = stronger binding
Quantity: 7-mer Z-score
Target sequence (chain): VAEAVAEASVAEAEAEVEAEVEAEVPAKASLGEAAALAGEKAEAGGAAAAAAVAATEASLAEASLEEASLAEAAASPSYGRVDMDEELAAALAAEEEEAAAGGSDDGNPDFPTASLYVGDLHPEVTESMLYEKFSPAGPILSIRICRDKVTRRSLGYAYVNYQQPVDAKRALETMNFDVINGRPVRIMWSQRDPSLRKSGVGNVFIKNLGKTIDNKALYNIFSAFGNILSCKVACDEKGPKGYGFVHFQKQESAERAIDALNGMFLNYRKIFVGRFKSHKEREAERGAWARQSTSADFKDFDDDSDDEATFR
Strand = GCGGCUU; value = -0.0047
Strand = AUUUCUA; value = -0.342
Strand = UAGGUGG; value = -0.0101
Strand = UUUCUAA; value = -0.32
Strand = CUAUGUU; value = -0.416
Strand = CUGCCCA; value = -0.376
Strand = AAGUGCG; value = 0.361
Strand = UAGACAA; value = 0.24

Study 2
Target: Sal-like protein 4, full length isoform A (SALL4, Homo sapiens, UniProt Q9UJQ4, residues 1-1053)
UniProt Q9UJQ4, sequence (whole entry, looked up): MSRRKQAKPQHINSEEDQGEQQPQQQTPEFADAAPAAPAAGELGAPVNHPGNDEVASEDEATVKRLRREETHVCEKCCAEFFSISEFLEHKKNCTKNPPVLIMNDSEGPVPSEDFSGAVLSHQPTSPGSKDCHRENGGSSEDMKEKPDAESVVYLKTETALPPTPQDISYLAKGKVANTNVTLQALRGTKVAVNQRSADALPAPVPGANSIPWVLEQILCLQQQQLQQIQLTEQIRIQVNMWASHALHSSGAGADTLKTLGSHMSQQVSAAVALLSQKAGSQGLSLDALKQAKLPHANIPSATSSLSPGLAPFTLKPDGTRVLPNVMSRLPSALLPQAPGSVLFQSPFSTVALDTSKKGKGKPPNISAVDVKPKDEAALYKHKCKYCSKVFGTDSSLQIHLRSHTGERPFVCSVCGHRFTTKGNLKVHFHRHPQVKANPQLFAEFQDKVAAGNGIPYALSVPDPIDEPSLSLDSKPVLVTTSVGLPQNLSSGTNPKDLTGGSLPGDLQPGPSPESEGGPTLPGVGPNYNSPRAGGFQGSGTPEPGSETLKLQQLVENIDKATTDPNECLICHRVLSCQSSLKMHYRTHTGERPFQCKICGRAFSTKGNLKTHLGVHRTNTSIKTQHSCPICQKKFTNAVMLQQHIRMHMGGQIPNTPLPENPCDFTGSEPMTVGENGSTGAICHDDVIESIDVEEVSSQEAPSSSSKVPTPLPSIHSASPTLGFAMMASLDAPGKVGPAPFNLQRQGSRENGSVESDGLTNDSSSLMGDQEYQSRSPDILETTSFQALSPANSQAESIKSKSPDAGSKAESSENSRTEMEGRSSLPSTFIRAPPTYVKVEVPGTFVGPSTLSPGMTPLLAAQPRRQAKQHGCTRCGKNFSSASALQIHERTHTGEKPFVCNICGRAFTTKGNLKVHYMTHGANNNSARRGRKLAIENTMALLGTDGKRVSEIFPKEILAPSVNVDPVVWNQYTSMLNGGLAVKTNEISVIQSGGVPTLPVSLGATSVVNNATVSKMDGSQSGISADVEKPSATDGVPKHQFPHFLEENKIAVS
Method: universal PBM
Form: double-stranded DNA, one strand shown
Sample: in vitro
Tested at: 600 nM
Notes: 8-mer, flanks averaged, mean of replicates
Reading: higher = stronger binding
Quantity: E-score
Strand = CCTACGAC; value = -0.0279
Strand = CCAGGCTC; value = -0.234
Strand = AGGACCCA; value = -0.286
Strand = CCGCTTGA; value = -0.136
Strand = ACATCAGT; value = -0.0387
Strand = CCTTCTTA; value = 0.00279
Strand = CCCCGTCC; value = -0.302
Strand = CCAGTCGA; value = -0.254

Study 3
Target: Serine/threonine-protein kinase OSR1 (OXSR1, Homo sapiens, UniProt O95747)
UniProt O95747, sequence (whole entry, looked up): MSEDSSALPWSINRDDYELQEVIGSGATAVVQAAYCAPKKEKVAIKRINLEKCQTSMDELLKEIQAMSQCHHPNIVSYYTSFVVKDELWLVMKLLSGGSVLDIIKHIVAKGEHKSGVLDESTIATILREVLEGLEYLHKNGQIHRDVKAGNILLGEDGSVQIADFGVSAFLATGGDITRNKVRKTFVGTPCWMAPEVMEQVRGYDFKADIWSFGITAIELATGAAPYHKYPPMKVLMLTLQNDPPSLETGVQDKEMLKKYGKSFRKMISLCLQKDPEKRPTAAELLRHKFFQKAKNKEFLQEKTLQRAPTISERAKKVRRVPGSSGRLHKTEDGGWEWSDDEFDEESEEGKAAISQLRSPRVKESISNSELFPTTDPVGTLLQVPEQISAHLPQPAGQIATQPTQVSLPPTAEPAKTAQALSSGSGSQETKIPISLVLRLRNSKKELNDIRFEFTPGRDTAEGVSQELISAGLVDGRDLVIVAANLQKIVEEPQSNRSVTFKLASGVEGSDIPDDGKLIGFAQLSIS
Read-out: enzyme activity
Action: inhibitor
Tested at: 0.5 µM
Reference: control
Quantity: remaining activity
Structure (SMILES) = Oc1ccc(-c2nc(-c3ccncc3)c(-c3ccc(F)cc3)[nH]2)cc1; value = 97.6%
Structure (SMILES) = N#CC(C#N)=C(N)/C(C#N)=C/c1ccc(O)cc1; value = 72.2%
Structure (SMILES) = Cc1cccc(-c2[nH]c(C(C)(C)C)nc2-c2ccc3c(c2)OCO3)n1; value = 103%
Structure (SMILES) = COc1cc2ncnc(Nc3ccc(F)c(Cl)c3)c2cc1OCCCN1CCOCC1; value = 101%
Structure (SMILES) = COc1ccc(C(=O)Nc2sc3c(c2C(N)=O)CCCC3)cc1OC; value = 99.9%
Structure (SMILES) = Cc1nc(-c2ccccc2)c(-c2ccncc2)o1; value = 102%
Structure (SMILES) = CN(C)c1ccc(C=C2C(=O)Nc3ccccc32)cc1; value = 106%
Structure (SMILES) = O=C(O)c1ccc2c3c1cccc3c(=O)n1c3ccccc3nc21; value = 104%
Structure (SMILES) = C#Cc1cccc(Nc2ncnc3cc(OCCOC)c(OCCOC)cc23)c1; value = 102%
Structure (SMILES) = Cn1c2ccccc2c2c3c(c4c5ccccc5n(CCC#N)c4c21)CNC3=O; value = 102%
Structure (SMILES) = Nc1ccc2ncnc(NCCc3ccc(Oc4ccccc4)cc3)c2c1; value = 101%
Structure (SMILES) = Nc1[nH]nc2nc3ccccc3nc12; value = 92.7%
Structure (SMILES) = CNC(=O)c1cc(Oc2ccc(NC(=O)Nc3ccc(Cl)c(C(F)(F)F)c3)cc2)ccn1; value = 103%
Structure (SMILES) = O=C1NC(=O)C(c2cn(CCCO)c3ncccc23)=C1c1cnccn1; value = 101%

Study 4
SMILES: COc1ccc2c(c1)O[C@@H](c1ccc(OC)c(OC)c1)C[C@H]2NC(=O)C1(c2ccc3c(c2)OC(F)(F)O3)CC1
Read-out: cell-free assay
Method: competition with immobilised ligand
Tested at: 1 µM
Quantity: remaining binding
target = RAF1 (Homo sapiens, UniProt P04049); value = 100%
target = GAK (Homo sapiens, UniProt O14976); value = 100%
target = LTK (Homo sapiens, UniProt P29376); value = 100%
target = MAP4K4 (Homo sapiens, UniProt O95819); value = 100%
target = Tyrosine-protein kinase ABL1, phosphorylated (ABL1, Homo sapiens, UniProt P00519); value = 80%
target = SRC (Homo sapiens, UniProt P12931); value = 100%
target = Tyrosine-protein kinase JAK2, JH1 (JAK2, Homo sapiens, UniProt O60674); value = 75%
target = FYN (Homo sapiens, UniProt P06241); value = 96%
target = TNNI3K (Homo sapiens, UniProt Q59H18); value = 100%
target = EPHB6 (Homo sapiens, UniProt O15197); value = 61%
target = MAP3K14 (Homo sapiens, UniProt Q99558); value = 87%
target = CAMK1 (Homo sapiens, UniProt Q14012); value = 100%
target = PIK3CA (Homo sapiens, UniProt P42336, C420R); value = 86%
